Results of several laboratories.
Each numbered part is a random draw from the data of one study; scales do not carry over between parts.
Chain of UniProt P00519 (whole entry, unmodified, looked up): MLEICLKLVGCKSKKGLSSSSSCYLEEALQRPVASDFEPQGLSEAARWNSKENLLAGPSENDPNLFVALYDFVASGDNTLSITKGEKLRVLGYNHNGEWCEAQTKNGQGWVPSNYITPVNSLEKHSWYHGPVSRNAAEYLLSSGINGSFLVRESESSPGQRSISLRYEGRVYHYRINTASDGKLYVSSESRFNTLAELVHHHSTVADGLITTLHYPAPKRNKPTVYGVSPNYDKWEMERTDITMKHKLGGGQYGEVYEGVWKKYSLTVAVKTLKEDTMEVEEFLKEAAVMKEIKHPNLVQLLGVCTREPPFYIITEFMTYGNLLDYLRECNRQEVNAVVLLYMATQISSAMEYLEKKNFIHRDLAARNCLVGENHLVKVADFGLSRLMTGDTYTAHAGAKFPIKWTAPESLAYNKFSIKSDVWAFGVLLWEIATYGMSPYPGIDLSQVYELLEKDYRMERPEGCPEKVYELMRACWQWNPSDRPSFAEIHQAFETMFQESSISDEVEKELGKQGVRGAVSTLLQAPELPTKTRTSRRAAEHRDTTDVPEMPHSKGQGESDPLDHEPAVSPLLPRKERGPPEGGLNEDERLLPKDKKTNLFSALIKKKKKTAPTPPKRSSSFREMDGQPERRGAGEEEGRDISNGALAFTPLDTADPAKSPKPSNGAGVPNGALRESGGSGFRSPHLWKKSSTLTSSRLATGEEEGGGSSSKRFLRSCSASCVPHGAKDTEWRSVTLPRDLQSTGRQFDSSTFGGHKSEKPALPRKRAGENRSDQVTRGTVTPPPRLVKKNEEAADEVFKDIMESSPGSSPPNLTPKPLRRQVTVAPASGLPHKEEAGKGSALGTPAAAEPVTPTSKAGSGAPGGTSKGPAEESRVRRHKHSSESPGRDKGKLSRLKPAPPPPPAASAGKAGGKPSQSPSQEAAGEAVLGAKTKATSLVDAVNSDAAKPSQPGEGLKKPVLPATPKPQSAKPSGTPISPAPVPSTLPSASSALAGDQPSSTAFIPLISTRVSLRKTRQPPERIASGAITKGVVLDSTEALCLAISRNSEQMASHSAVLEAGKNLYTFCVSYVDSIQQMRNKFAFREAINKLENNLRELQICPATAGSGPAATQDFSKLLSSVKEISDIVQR
Chain of UniProt Q15139 (whole entry, looked up): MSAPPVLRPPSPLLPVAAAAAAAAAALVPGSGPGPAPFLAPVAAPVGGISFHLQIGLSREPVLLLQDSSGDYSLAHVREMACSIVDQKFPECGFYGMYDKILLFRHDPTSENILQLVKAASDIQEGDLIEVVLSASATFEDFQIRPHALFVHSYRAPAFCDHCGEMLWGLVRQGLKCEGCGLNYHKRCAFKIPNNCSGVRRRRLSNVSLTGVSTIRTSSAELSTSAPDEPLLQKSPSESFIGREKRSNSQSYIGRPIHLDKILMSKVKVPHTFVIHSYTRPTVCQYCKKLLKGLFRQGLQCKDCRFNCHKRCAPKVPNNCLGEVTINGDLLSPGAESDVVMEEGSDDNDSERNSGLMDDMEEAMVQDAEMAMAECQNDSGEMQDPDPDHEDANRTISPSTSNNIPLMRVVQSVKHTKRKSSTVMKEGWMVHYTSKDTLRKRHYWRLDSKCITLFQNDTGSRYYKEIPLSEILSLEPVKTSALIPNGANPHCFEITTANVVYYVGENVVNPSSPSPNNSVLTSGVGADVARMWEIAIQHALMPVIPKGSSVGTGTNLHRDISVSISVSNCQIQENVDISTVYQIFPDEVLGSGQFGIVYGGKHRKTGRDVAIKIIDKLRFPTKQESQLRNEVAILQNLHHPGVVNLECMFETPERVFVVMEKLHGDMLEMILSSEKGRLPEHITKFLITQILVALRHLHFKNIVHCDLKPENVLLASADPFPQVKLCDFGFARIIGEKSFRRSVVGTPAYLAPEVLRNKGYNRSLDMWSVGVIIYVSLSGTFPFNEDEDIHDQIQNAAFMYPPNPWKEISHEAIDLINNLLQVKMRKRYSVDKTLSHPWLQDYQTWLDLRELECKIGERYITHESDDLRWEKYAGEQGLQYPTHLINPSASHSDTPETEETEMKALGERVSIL

Block 1
Target: Glycogen synthase kinase-3 alpha (GSK3A, Homo sapiens, UniProt P49840)
Chain of UniProt P49840 (whole entry, looked up): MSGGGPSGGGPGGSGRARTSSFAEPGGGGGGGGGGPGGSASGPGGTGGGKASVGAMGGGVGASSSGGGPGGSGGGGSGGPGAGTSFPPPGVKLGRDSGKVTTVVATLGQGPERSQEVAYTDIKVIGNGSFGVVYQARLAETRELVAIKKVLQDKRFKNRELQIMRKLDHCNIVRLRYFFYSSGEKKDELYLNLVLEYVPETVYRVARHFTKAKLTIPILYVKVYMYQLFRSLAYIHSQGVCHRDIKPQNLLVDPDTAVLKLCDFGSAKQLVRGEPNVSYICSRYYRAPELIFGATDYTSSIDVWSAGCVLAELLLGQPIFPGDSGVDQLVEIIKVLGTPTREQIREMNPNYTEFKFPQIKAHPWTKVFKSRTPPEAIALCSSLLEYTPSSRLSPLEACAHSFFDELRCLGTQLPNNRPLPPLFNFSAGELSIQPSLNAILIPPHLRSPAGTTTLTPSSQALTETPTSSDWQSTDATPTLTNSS
Effect on: enzyme activity
Action: inhibitor
Concentration: 0.5 µM
Baseline: control
| SMILES | remaining activity |
| --- | --- |
| O=c1c(-c2ccc(F)cc2)c(-c2ccncc2)[nH]n1-c1ccc(Cl)cc1 | 93.3% |
| Nc1nc(Nc2ccc(S(N)(=O)=O)cc2)nn1C(=S)Nc1c(F)cccc1F | 6.3% |
| N#CC(c1ccnc(NCCc2cccnc2)n1)c1nc2ccccc2s1 (stereo not drawn) | 2.42% |
| COc1cc2c(Nc3ccc(Br)cc3F)ncnc2cc1OCC1CCN(C)CC1 | 103% |
| COc1cc2c(N3CCN(C(=O)Nc4ccc(OC(C)C)cc4)CC3)ncnc2cc1OCCCN1CCCCC1 | 105% |
| Clc1ccc(Nc2nnc(Cc3ccncc3)c3ccccc23)cc1 | 103% |
| CNc1cc2c(Nc3cccc(Br)c3)ncnc2cn1 | 95.9% |
| O=Nc1c(-c2c(O)[nH]c3ccccc23)[nH]c2ccccc12 | 16.5% |
| CCN(CC)CCCCN1c2ccccc2Oc2ccc(Cl)cc21 | 108% |
| O=C1NC(=O)/C(=C/c2ccc3c(c2)OC(F)(F)O3)S1 | 88.1% |
| CC(C)n1cnc2c(Nc3cccc(Cl)c3)nc(NCCO)nc21 | 103% |
| C[C@@H](N)[C@H]1CC[C@H](C(=O)Nc2ccncc2)CC1 | 103% |
| c1cc(-c2cnn3cc(-c4ccc(OCCN5CCCCC5)cc4)cnc23)ccn1 | 80.7% |
| N#C/C(=C(/N)SC1C=CC=CC1)c1cccc(C(O)c2ccncc2)c1 (stereo not drawn) | 103% |
| NC(=O)c1cccc(-c2cc(Nc3ccc(OC(F)(F)F)cc3)ncn2)c1 | 93.9% |
| FC(F)(F)c1ccc(/C=C/c2nc(COc3ccc(CCCCn4ccnn4)cc3)co2)cc1 | 102% |
| CC(C)(C)c1nc2c3cc[nH]c(=O)c3c3cc(F)ccc3c2[nH]1 | 121% |
| CCCCc1c(-c2ccc(O)cc2)[nH]c2nccnc12 | 57.7% |
| O=C(c1ccccc1)c1ccc(N2CCOCC2)cc1O | 102% |
| O=C(O)/C=C/c1cc(Br)c(Br)c(Br)c1Br | 91.5% |
| NC(=O)c1ccc(-c2nc(-c3ccc4c(c3)OCCO4)c(-c3ccccn3)[nH]2)cc1 | 103% |
| O=C1c2ccccc2-c2nc3nnnn3nc21 | 88.7% |
| CC(C)N(CCC(=O)c1ccc2ccccc2c1)Cc1ccccc1 | 98.8% |

Block 2
SMILES: CN1CCN(C(=O)c2ccc(NC(=O)Nc3ccc(N(C)c4ccnc(Nc5ccc(CS(C)(=O)=O)cc5)n4)cc3)cc2)CC1
Concentration: 1 µM
| target | method | setting | baseline | remaining binding |
| --- | --- | --- | --- | --- |
| STK36 (Homo sapiens, UniProt Q9NRP7) | competitive binding panel |  | vehicle | 37% |
| TNK2 (Homo sapiens, UniProt Q07912) | competitive binding panel |  | vehicle | 6.5% |
| RPS6KA4 (Homo sapiens, UniProt O75676) | competitive binding scan | C-terminal kinase domain 2 |  | 74% |
| MST1R (Homo sapiens, UniProt Q04912) | competitive binding panel |  | vehicle | 41% |
| MAST1 (Homo sapiens, UniProt Q9Y2H9) | competitive binding panel |  | vehicle | 61% |
| PRKD1 (Homo sapiens, UniProt Q15139) | competitive binding panel |  | vehicle | 100% |
| NEK7 (Homo sapiens, UniProt Q8TDX7) | competitive binding panel |  | vehicle | 93% |
| RIOK1 (Homo sapiens, UniProt Q9BRS2) | competitive binding panel |  | vehicle | 2.2% |
| ABL1 (Homo sapiens, UniProt P00519) | competitive binding, scanMAX | phosphorylated, 1000 nM |  | 30% |
| HASPIN (Homo sapiens, UniProt Q8TF76) | competitive binding panel |  | vehicle | 92% |
| MAP2K1 (Homo sapiens, UniProt Q02750) | competitive binding | MEK1 |  | 33% |
| KIT (Homo sapiens, UniProt P10721, T670I/V559D) | competitive binding panel |  | vehicle | 0.1% |
| PRKAA1 (Homo sapiens, UniProt Q13131) | competitive binding | AMPK-alpha1 |  | 82% |
| CAMK2B (Homo sapiens, UniProt Q13554) | competitive binding panel |  | vehicle | 86% |
| TGFBR2 (Homo sapiens, UniProt P37173) | competitive binding panel |  | vehicle | 26% |
| CLK1 (Homo sapiens, UniProt P49759) | competitive binding panel |  | vehicle | 84% |
| LRRK2 (Homo sapiens, UniProt Q5S007) | competitive binding panel |  | vehicle | 74% |

Block 3
Target: DNA polymerase theta, ATPase domain (POLQ, Homo sapiens, UniProt O75417)
Chain of UniProt O75417 (whole entry, unmodified, looked up): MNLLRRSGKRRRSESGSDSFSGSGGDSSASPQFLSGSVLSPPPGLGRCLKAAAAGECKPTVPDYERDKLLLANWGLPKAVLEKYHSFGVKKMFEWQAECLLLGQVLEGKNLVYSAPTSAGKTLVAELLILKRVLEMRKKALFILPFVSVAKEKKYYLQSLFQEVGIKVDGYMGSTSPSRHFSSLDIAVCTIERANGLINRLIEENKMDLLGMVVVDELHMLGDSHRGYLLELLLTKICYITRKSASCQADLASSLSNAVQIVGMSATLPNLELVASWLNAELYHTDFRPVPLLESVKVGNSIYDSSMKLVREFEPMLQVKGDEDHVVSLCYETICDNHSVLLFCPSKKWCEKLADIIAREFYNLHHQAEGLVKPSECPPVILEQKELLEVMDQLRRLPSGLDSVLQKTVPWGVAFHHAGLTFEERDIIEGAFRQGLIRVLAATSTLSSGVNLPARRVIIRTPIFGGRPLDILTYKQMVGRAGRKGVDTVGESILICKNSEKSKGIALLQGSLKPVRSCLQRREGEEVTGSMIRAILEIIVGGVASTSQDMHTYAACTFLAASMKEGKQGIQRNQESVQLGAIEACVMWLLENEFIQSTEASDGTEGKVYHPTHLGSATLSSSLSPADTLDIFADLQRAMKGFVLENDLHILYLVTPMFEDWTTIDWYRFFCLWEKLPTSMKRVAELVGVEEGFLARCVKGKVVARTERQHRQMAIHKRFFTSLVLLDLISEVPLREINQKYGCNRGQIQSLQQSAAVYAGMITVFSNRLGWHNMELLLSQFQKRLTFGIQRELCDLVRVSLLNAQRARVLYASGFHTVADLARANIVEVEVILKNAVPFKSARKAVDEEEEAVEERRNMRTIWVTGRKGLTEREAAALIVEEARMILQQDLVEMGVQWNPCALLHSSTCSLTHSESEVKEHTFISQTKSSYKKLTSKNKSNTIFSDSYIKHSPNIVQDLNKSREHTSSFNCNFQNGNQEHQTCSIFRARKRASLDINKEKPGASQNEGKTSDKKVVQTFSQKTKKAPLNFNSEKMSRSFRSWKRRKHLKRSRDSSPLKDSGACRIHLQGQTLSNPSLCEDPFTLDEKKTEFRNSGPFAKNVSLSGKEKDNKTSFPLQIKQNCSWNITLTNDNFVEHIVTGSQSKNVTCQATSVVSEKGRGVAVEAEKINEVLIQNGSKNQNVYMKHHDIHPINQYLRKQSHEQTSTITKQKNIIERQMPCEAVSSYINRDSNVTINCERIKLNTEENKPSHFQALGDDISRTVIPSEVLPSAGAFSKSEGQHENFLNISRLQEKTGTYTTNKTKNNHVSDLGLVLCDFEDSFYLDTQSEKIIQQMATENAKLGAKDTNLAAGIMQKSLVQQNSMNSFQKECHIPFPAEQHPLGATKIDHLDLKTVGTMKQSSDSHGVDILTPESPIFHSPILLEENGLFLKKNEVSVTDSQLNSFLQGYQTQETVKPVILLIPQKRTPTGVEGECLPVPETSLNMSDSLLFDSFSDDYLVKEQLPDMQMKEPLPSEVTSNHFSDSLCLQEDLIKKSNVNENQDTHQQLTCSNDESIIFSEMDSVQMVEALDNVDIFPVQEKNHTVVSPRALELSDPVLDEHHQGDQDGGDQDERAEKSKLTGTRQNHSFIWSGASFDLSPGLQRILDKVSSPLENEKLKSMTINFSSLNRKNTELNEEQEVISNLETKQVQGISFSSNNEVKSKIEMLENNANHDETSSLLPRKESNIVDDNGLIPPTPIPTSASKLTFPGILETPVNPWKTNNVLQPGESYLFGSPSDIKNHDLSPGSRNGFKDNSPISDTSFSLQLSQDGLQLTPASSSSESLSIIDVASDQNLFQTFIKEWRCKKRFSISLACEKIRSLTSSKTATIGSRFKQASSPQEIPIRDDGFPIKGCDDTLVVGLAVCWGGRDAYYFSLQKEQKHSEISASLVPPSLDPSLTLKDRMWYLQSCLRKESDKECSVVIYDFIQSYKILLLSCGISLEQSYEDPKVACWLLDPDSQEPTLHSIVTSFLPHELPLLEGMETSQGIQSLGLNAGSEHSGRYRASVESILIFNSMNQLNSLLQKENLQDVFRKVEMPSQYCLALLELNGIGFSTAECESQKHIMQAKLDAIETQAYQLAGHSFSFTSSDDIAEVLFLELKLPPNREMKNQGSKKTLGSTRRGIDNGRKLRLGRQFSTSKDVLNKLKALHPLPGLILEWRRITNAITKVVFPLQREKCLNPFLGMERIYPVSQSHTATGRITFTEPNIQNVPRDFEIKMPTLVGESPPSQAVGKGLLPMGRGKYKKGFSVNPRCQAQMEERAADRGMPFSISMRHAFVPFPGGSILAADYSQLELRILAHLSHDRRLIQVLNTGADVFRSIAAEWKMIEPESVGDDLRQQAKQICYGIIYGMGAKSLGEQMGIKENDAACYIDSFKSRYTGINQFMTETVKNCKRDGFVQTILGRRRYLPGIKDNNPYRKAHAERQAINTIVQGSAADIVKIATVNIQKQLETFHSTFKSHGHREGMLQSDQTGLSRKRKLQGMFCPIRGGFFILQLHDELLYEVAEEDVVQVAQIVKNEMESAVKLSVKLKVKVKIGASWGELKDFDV
Effect on: enzyme activity
Action: inhibitor
Concentration: 77 µM
| SMILES | remaining activity |
| --- | --- |
| CC[C@@H](C(=O)[C@@H](C)[C@@H](O)[C@H](C)CCc1ccc(C)c(O)c1C(=O)O)[C@H]1O[C@](CC)([C@H]2CC[C@](O)(CC)[C@H](C)O2)C[C@@H]1C | 99.5% |
| Cc1ccc(C(=O)Nc2ccc(S(=O)(=O)O)c3cc(S(=O)(=O)O)cc(S(=O)(=O)O)c23)cc1NC(=O)c1cccc(NC(=O)Nc2cccc(C(=O)Nc3cc(C(=O)Nc4ccc(S(=O)(=O)O)c5cc(S(=O)(=O)O)cc(S(=O)(=O)O)c45)ccc3C)c2)c1 | 6.56% |
| Cc1c(Cc2ccc3ccccc3n2)c2cc(F)ccc2n1CC(=O)O | 99.7% |
| CCCC1C(=O)N2C(N(C)C)=Nc3ccc(C)cc3N2C1=O (stereo not drawn) | 97.3% |
| Fc1ccc(C(c2ccc(F)cc2)N2CCN(C/C=C/c3ccccc3)CC2)cc1 | 102% |
| CC(C)COC(=O)OCN1C(=O)CN(CCN2CC(=O)N(COC(=O)OCC(C)C)C(=O)C2)CC1=O | 99.3% |
| CC(C)n1c(/C=C/[C@@H](O)C[C@@H](O)CC(=O)O)c(-c2ccc(F)cc2)c2ccccc21 | 98.7% |
| Cn1c(=O)c2c(ncn2C)n(C)c1=O | 102% |
| Cn1cc(-c2ccc3c(c2)CCN3C(=O)Cc2cccc(C(F)(F)F)c2)c2c(N)ncnc21 | 93.6% |
| CN(C)CCC=C1c2ccccc2COc2ccccc21 | 115% |
| Cc1c(-c2ccc(O)cc2)n(Cc2ccc(OCCN3CCCCCC3)cc2)c2ccc(O)cc12 | 96.2% |
| CC(C)(O)c1ccccc1CC[C@@H](SCC1(CC(=O)O)CC1)c1cccc(/C=C/c2ccc3ccc(Cl)cc3n2)c1 | 96% |
| Cc1ccc(/C(=C\CN2CCCC2)c2ccccn2)cc1 | 96.7% |

Block 4
Structure (SMILES): Cc1c(NC(=O)c2cc(C(N)=O)nc3cc(F)ccc23)c(C(F)(F)F)nn1Cc1ccc(C(C)(C)C)cc1
Method: competition with immobilised ligand
Concentration: 1 µM
| target | effect on | remaining binding [%] |
| --- | --- | --- |
| EPHA3 (Homo sapiens, UniProt P29320) | cell-free assay | 98 |
| Ribosomal protein S6 kinase alpha-5, N-terminal kinase domain (RPS6KA5, Homo sapiens, UniProt O75582) | cell-free assay | 100 |
| CSK (Homo sapiens, UniProt P41240) | cell-free assay | 94 |
| EPHB4 (Homo sapiens, UniProt P54760) | cell-free assay | 100 |
| MST1R (Homo sapiens, UniProt Q04912) | cell-free assay | 80 |
| NUAK2 (Homo sapiens, UniProt Q9H093) | cell-free assay | 100 |
| TAOK2 (Homo sapiens, UniProt Q9UL54) | cell-free assay | 100 |
| PIK3CG (Homo sapiens, UniProt P48736) | cell-free assay | 100 |
| NEK9 (Homo sapiens, UniProt Q8TD19) | cell-free assay | 100 |
| RET (Homo sapiens, UniProt P07949) | cell-free assay | 100 |
| TLK1 (Homo sapiens, UniProt Q9UKI8) | cell-free assay | 100 |
| PAK6 (Homo sapiens, UniProt Q9NQU5) | cell-free assay | 100 |
| Ribosomal protein S6 kinase alpha-1, C-terminal kinase domain (RPS6KA1, Homo sapiens, UniProt Q15418) | cell-free assay | 100 |
| Cyclin-dependent kinase 4, with cyclin D1 (CDK4, Homo sapiens, UniProt P11802) | cell-free assay | 100 |
| MAP3K10 (Homo sapiens, UniProt Q02779) | cell-free assay | 78 |
| ROS1 (Homo sapiens, UniProt P08922) | cell-free assay | 100 |
| MARK2 (Homo sapiens, UniProt Q7KZI7) | cell-free assay | 100 |
| CASK (Homo sapiens, UniProt O14936) | cell-free assay | 100 |
| Tyrosine-protein kinase ABL1, phosphorylated (ABL1, Homo sapiens, UniProt P00519, F317L) | cell-free assay | 98 |
| PIK3CA (Homo sapiens, UniProt P42336) | cell-free assay | 100 |
| LCK (Homo sapiens, UniProt P06239) | cell-free assay | 100 |
| MAPK13 (Homo sapiens, UniProt O15264) | cell-free assay | 49 |
| SIK3 (Homo sapiens, UniProt Q9Y2K2) | cell-free assay | 91 |
| Tyrosine-protein kinase ABL1, phosphorylated (ABL1, Homo sapiens, UniProt P00519, E255K) | binding | 100 |
| ERBB2 (Homo sapiens, UniProt P04626) | cell-free assay | 92 |

Excerpt of the above (block 1):
| SMILES | remaining activity |
| --- | --- |
| O=Nc1c(-c2c(O)[nH]c3ccccc23)[nH]c2ccccc12 | 16.5% |
| O=c1c(-c2ccc(F)cc2)c(-c2ccncc2)[nH]n1-c1ccc(Cl)cc1 | 93.3% |
| CC(C)N(CCC(=O)c1ccc2ccccc2c1)Cc1ccccc1 | 98.8% |
| NC(=O)c1cccc(-c2cc(Nc3ccc(OC(F)(F)F)cc3)ncn2)c1 | 93.9% |
| N#CC(c1ccnc(NCCc2cccnc2)n1)c1nc2ccccc2s1 (stereo not drawn) | 2.42% |
| O=C(c1ccccc1)c1ccc(N2CCOCC2)cc1O | 102% |
